Measurements of several laboratories.
Each line is one published result; not all experiments were run side by side. Several values in a cell are separate wells, animals, samples, runs or records. Numbers after ± are the reported error. Converted amounts (≈) assume the structure as drawn.
Sequence of UniProt Q13043 (whole entry, looked up): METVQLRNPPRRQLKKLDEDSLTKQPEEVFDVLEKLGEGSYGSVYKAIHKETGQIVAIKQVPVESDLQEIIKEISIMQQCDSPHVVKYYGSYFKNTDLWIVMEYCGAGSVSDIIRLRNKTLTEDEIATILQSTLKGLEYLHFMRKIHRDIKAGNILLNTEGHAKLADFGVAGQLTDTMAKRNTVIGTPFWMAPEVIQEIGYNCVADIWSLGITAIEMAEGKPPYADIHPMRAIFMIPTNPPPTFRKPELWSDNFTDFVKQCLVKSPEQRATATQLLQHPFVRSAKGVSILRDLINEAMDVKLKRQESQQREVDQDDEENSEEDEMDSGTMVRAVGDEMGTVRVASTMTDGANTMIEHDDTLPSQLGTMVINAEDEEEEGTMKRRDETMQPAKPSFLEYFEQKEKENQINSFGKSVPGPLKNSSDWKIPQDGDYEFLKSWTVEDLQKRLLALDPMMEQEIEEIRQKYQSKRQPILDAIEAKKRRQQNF
Sequence of UniProt P29376 (whole entry, looked up): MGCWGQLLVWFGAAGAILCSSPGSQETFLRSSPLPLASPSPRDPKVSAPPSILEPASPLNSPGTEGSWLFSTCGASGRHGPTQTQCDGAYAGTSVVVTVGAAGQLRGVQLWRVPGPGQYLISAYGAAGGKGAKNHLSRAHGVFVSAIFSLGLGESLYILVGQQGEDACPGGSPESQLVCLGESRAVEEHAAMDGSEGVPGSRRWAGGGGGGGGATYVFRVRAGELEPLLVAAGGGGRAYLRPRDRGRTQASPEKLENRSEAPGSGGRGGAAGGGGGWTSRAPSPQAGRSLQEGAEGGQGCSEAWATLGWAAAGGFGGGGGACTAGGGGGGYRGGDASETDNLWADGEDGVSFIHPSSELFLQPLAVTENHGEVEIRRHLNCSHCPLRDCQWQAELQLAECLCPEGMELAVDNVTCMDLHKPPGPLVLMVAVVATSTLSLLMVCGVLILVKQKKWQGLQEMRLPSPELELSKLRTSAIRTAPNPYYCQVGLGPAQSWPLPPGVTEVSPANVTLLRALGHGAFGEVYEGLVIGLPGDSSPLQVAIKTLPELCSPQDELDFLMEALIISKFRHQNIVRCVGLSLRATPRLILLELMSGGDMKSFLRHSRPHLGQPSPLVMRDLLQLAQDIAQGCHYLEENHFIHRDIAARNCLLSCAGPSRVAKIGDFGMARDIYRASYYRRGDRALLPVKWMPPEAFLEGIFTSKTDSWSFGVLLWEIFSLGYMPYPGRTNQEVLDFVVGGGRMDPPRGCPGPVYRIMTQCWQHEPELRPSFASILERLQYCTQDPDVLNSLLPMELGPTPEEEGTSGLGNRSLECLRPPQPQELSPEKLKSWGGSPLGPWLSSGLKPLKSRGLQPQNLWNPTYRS
Sequence of UniProt P10632 (whole entry, looked up): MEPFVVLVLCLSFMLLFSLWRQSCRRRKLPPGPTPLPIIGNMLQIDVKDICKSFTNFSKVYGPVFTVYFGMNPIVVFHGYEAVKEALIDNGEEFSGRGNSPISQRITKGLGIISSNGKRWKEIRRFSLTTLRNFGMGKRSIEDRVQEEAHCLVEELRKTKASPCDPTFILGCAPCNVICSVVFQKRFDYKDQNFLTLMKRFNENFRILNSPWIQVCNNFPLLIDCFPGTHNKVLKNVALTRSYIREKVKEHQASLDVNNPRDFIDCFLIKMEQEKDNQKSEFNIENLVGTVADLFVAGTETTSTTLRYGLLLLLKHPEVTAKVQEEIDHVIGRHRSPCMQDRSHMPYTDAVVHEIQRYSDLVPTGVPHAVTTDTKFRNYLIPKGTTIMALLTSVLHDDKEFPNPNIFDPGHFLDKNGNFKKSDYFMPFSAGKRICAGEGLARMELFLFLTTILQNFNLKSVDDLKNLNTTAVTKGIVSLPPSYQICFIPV

CC[C@H](C)[C@H](NC(=O)[C@H](CCCCN)NC(=O)[C@H](CCCCN)NC(=O)[C@H](Cc1ccccc1)NC(=O)[C@H](Cc1ccccc1)NC(=O)[C@H](CCCCN)NC(=O)[C@H](CCCCN)NC(=O)[C@H](Cc1ccccc1)NC(=O)[C@H](CCCNC(=N)N)NC(=O)[C@@H](N)CCCCN)C(=O)N[C@@H](CCCCN)C(=O)N[C@@H](CCCCN)C(=O)N[C@@H](CO)C(=O)N[C@H](C(=O)N[C@@H](CCCCN)C(=O)N[C@@H](CCCCN)C(=O)N[C@@H](CCCNC(=N)N)C(=O)N[C@H](C(=O)N[C@@H](CCCCN)C(=O)N[C@@H](CCCCN)C(=O)N[C@@H](CC(C)C)C(=O)N[C@@H](Cc1ccccc1)C(=O)N[C@@H](CCCCN)C(=O)N[C@@H](CCCCN)C(=O)N1CCC[C@H]1C(=O)N[C@@H](CCCNC(=N)N)C(=O)N[C@H](C(=O)N[C@H](C(=O)N1CCC[C@H]1C(=O)N[C@H](C(=O)N[C@@H](CO)C(=O)N[C@H](C(=O)N1CCC[C@H]1C(=O)N[C@@H](Cc1ccccc1)C(=O)O)[C@@H](C)CC)[C@@H](C)CC)[C@@H](C)CC)C(C)C)C(C)C)C(C)C  MIC (Escherichia coli; MIC after serum incubation; E24; 0.5 h, 37 °C, with: 25% mouse serum): 8 µg/mL (≈ 1.9 µM)
CC(=O)NCCCC[C@@H]1NC(=O)[C@H](Cc2c[nH]c3c(C)cccc23)NC(=O)[C@H]([C@@H](C)O)NC(=O)[C@H](CC(N)=O)NC(=O)[C@@H](NC(C)=O)C(C)(C)SSC(C)(C)[C@@H](C(=O)N[C@@H](Cc2ccc(OCCN)cc2)C(=O)N[C@@H](Cc2ccc3ccccc3c2)C(=O)NC2(C(=O)N[C@@H](CCC(=O)O)C(=O)N[C@@H](CC(N)=O)C(=O)N[C@@H](Cc3cccnc3)C(=O)N(C)CC(N)=O)CCOCC2)NC1=O  efflux ratio (ABCB1 (Homo sapiens, UniProt P08183); transport, inhibitor; LLC-PK1 expressing MDR1; 100 µM, 90 min, with: [3H]digoxin): 14.6
COc1ccccc1-c1n[nH]c2nc(N[C@H]3CC[C@H](NS(=O)(=O)CC(C)C)CC3)ncc12  relative abundance (bead binding, competition bead pull-down, item: LINJ.29.2220; Leishmania donovani extract; 10 µM; relative to: vehicle): 0.91
Cc1ccc(NS(=O)(=O)c2c(C(=O)N3CCCCCC3)c(C)n(C)c2C)c(Cl)c1  viability (human cells; 0.046 µM, 60 h): 96.4%
COc1ccccc1-c1n[nH]c2nc(NC3CCN(C(=O)Cc4ccc(F)cc4F)CC3)ncc12  relative abundance (bead binding, competition bead pull-down, item: LINJ.32.2780; Leishmania donovani extract; 10 µM; relative to: vehicle): 0.99
CNC(=O)CC1CN(C(=O)c2ccc(C(F)(F)F)cn2)CCN1C(=O)c1cccnn1 (stereo not shown)  viability (Huh-7-ACE2; CellTiter-Glo; 0.00305 µM, 48 h, unit not given; relative to: DMSO): 0.955 and 1.03 and 1.05
NC[C@]1(CC(=O)O)CC[C@@H]([18F])CC1  fast-phase half-life (PET, arterial plasma; rhesus monkey, plasma parent; intravenous, baseline): 4.54 min
Cc1sc2c(c1C)C(c1ccc(Cl)cc1)=N[C@@H](CC(=O)OC(C)(C)C)c1nnc(C)n1-2  clearance (CD1 mouse, male, plasma; intravenous, 5 mg/kg): 39.2 mL/min/kg
O=C(NS(=O)(=O)c1cccs1)c1cc2ccccc2n1Cc1ccc(Br)c2ccccc12  body weight (KM mouse, chronic hyperuricaemia model; dose not given, day 12): 25.8 g
CC(C)[C@H]1NC(=O)C[C@H]2/C=C/CCSSC[C@@H](NC1=O)C(=O)N[C@H](Cc1cccc3ccccc13)C(=O)NCC(=O)O2  inhibition (LTK (Homo sapiens, UniProt P29376); enzyme activity, inhibitor; 10 µM): 1.3%
N=C(N)NCCC[C@H](NC(=O)[C@H](CCCNC(=N)N)NC(=O)[C@H](CCCNC(=N)N)NC(=O)[C@H](CCC(N)=O)NC(=O)[C@H](CCCNC(=N)N)NC(=O)[C@H](CCCNC(=N)N)NC(=O)[C@H](CCCCN)NC(=O)[C@H](CCCCN)NC(=O)[C@H](CCCNC(=N)N)NC(=O)CNC(=O)[C@H](Cc1ccc(O)cc1)NC(=O)[C@H](Cc1ccccc1)NC(=O)[C@H](Cc1ccccc1)NC(=O)[C@H](Cc1ccccc1)NC(=O)Cc1ccc2ccccc2c1)C(=O)O  cell internalization (RAW264.7; FITC-labelled peptide; concentration not given, with: chlorpromazine 6 µg/mL, 1 h pretreatment; relative to: no chlorpromazine): decreased
COc1ccc(-n2cc(C(=O)N3C[C@]4(OC(=O)c5ccccc5NC(C)=O)CC[C@H](OC)[C@@]56[C@@H]4C[C@@H]([C@@H]35)[C@@]3(O)C[C@H](OC)[C@H]4C[C@@H]6[C@]3(O)[C@H]4OC)nn2)cc1  plasma concentration (Sprague-Dawley rat, plasma; intravenous, 2 mg/kg, 0.5 h): 36.3 ng/mL
COc1cc2c(cc1NC(=O)c1cncn1C)C[C@H]1[C@H]3CCCC[C@@]23CCN1C  plasma concentration (C57BL/6 mouse, plasma; oral, 50 µg/g, 60 min): 8550 ng/mL
Cc1nc2cccc(OCC(C)(C)C(=O)NC(C)C)c2c(N)c1C(=O)[O-].[Na+]  revertant colonies per plate (Salmonella typhimurium; TA1537; 0.80 mg per plate, without S9, plate incorporation): 13 ± 2
Cc1cc(C(=O)Nc2nc3cccc(C)c3n2[C@H]2CCCCN(C(=O)/C=C/CN(C)C)C2)ccn1  cell cycle distribution (Trypanosoma brucei; propidium iodide flow cytometry, item: SubG0 phase; bloodstream CLK1 over-expression uninduced; concentration not given): 8.2% and 7.2% and 5.75%
O=C1NC(=O)c2c1c1cc(F)c[n+]3c1c1c2c2cc(O)ccc2[n]1[Ru-4]312([N]=C=S)[S+]3CC[S+]1CC[S+]2CC3 (stereo not shown)  remaining activity (STK4 (Homo sapiens, UniProt Q13043); enzyme activity; 100 nM, human enzyme, with: 10 µM ATP; relative to: untreated): 12%
CN(C)[C@H]1C[C@@]23CC[C@@]4(O2)C(=CC[C@]2(C)[C@@H](c5ccc6ccncc6c5)CC[C@H]24)C=C3[C@@H](O)[C@@H]1O  inhibition (MTOR (Homo sapiens, UniProt P42345); 1 µM): -2.4%
Cc1cc(-c2ccc3ccccc3c2)nnc1NCCN1CCN(C)CC1  remaining compound (Cytochrome P450 2C8 (CYP2C8, Homo sapiens, UniProt P10632); substrate; recombinant enzyme; 100 nM, 1 h): 75%
CC(C)(C)C(=O)OCOP(=O)(OCOC(=O)C(C)(C)C)C1CCCN(O)C1=O (stereo not shown)  log GI50 (KM12): -6.35 log M
CNC(=O)C[C@H](Cc1ccc(F)cc1)NC(=O)[C@@H](Cc1ccc(Cl)cc1Cl)NC(=O)[C@H](N)Cc1ccccc1[N+](=O)[O-]  viability (Huh-7-ACE2; CellTiter-Glo; 0.00153 µM, 48 h, unit not given; relative to: DMSO): 1.17 and 0.96 and 1.11
CC[C@H](C)[C@H](NC(=O)[C@H](CO)NC(=O)[C@H](Cc1ccc(O)cc1)NC(=O)[C@H](Cc1ccc(O)cc1)NC(=O)[C@H](CC(N)=O)NC(=O)CNC(=O)[C@H](CO)NC(=O)[C@H](Cc1ccc(O)cc1)NC(=O)[C@H](CO)NC(=O)[C@H](CO)NC(=O)[C@H](CC(N)=O)NC(=O)COCCOCCNC(=O)CN1CCN(CC(=O)O)CCN(CC(=O)O)CCN(CC(=O)O)CC1)C(=O)N[C@@H](CC(C)C)C(N)=O [copper-64 labelled]  tissue uptake (dynamic PET; KPC mouse Ptf1a-CreER tdTomato, pancreas; intravenous, dose not given, 3.5 min, 84 d after tamoxifen): 14.1 %ID/mL
O=C1NC2(CC2)COc2ncc(F)cc2[C@H]2COCCN2c2ccn3ncc1c3n2  mean corpuscular haemoglobin (Sprague-Dawley rat, male, blood; oral, 20 mg/kg/day, 4 weeks, end of recovery, subacute toxicity): 17.6 ± 0.4 pg
CNC(=O)C[C@H](Cc1ccncc1)NC(=O)[C@@H](Cc1cccc(Br)c1)NC(=O)[C@@H](N)Cc1cccc(F)c1  viability (Huh-7-ACE2; CellTiter-Glo; 3.125 µM, 48 h, unit not given; relative to: DMSO): 1.05 and 0.981 and 0.952
C[C@@H](c1ccc2nccn2c1)n1nnc2ncc(-c3cn[nH]c3)nc21  inhibition (human CYP3A4/5; time-dependent inhibitor; human liver microsomes; 50 µM): 29%
CNC(=O)C[C@H](Cc1ccc(F)cc1)NC(=O)[C@@H](Cc1ccc(Cl)cc1Cl)NC(=O)[C@H](N)Cc1ccccc1C#N  viability (Huh-7-ACE2; CellTiter-Glo; 0.000381 µM, 48 h, unit not given; relative to: DMSO): 0.977 and 0.926 and 0.937
CN[C@@H]1[C@H](O)[C@H](NC)[C@H]2O[C@]3(O)[C@H](O[C@@H]2[C@H]1O)O[C@H](C)C[C@H]3NC(=O)Cc1ccc(Cl)cn1  fraction unbound (mouse plasma): 0.858
CCOc1ccc(CN2CC[C@H]2C(=O)NC)cc1-c1cccc(C(=O)NC[C@@H]2COC(C)(C)O2)c1  viability (Huh-7-ACE2; CellTiter-Glo; 12.5 µM, 48 h, unit not given; relative to: DMSO): 0.833 and 0.869 and 0.798
CS(C)(=O)=Nc1ccc(-c2ccc(-c3nc4cc(O[C@@H]5CO[C@H]6[C@@H]5OC[C@H]6O)[nH]c4cc3F)cc2)cc1  inhibition (EPHB2 (Homo sapiens, UniProt P29323); enzyme activity, inhibitor; 10 µM): 9%

Repeated from above:
CNC(=O)CC1CN(C(=O)c2ccc(C(F)(F)F)cn2)CCN1C(=O)c1cccnn1 (stereo not shown)  viability (Huh-7-ACE2; CellTiter-Glo; 0.00305 µM, 48 h, unit not given; relative to: DMSO): 0.955 and 1.03 and 1.05
COc1ccccc1-c1n[nH]c2nc(NC3CCN(C(=O)Cc4ccc(F)cc4F)CC3)ncc12  relative abundance (bead binding, competition bead pull-down, item: LINJ.32.2780; Leishmania donovani extract; 10 µM; relative to: vehicle): 0.99
